{"data": "Measurements collected from several papers", "note": "± marks the error that the study gave."}
{"SMILES": "CN[C@@H]1[C@H](O)[C@H](NC)[C@H]2O[C@]3(O)[C@H](O[C@@H]2[C@H]1O)O[C@H](C)C[C@@]3(O)CNCc1ccc(OC(F)(F)F)cc1", "organism": "Streptococcus pneumoniae", "test system": "BAA-1407 mefE ermB resistant", "MIC": "6 µg/mL"}
{"SMILES": "CC[C@H](C)[C@H](NC(=O)[C@H](CCCN)NC(=O)[C@H](CC(N)=O)NC(=O)[C@H](CC(C)C)NC(=O)[C@H](Cc1ccccc1)NC(=O)[C@H](CCCN)NC(=O)[C@H](CCCNC(=N)N)NC(=O)[C@H](CC(C)C)NC(=O)[C@H](CC(C)C)NC(=O)[C@H](CCCN)NC(=O)[C@H](CCCNC(=N)N)NC(=O)[C@H](CC(C)C)NC(=O)CNC(C)=O)C(=O)N[C@@H](CCCN)C(=O)N[C@@H](CCCNC(=N)N)C(N)=O", "organism": "Enterobacter aerogenes", "test": "broth microdilution", "test system": "multidrug-resistant", "MIC": "25 µM"}
{"SMILES": "Cc1c2oc3c(C)ccc(C(=O)N[C@@H]4C(=O)N[C@H](C(C)C)C(=O)N5[C@@H](C)CC[C@H]5C(=O)N(C)CC(=O)N(C)[C@@H](C(C)C)C(=O)O[C@@H]4C)c3nc-2c(C(=O)N[C@@H]2C(=O)N[C@H](C(C)C)C(=O)N3[C@@H](C)CC[C@H]3C(=O)N(C)CC(=O)N(C)[C@@H](C(C)C)C(=O)O[C@@H]2C)c(N)c1=O", "organism": "Saccharomyces cerevisiae", "test": "broth microdilution", "test system": "ATCC 204508", "setting": "16 to 48 h", "MIC": "> 9.36 µg/mL"}
{"SMILES": "O=[N+]([O-])c1ccc(C2=[N+]([O-])c3ccccc3N3CCCN=C23)cc1", "organism": "Clostridioides difficile", "test": "microbial growth", "test system": "ATCC43255", "MIC": "≤ 0.06 µg/mL"}
{"SMILES": "C[C@@H](c1ccn(Cc2ccc(OC(F)(F)F)cc2)n1)[C@](O)(Cn1cnnn1)c1ccc(F)cc1F", "organism": "Candidozyma auris", "test": "growth", "test system": "791 drug-resistant isolate", "setting": "24 h, 30 °C, ≥50% inhibition", "MIC": "1 µg/mL"}
{"SMILES": "CN[C@@H]1[C@H](O)[C@H](NC)[C@H]2O[C@]3(O)[C@H](O[C@@H]2[C@H]1O)O[C@H](C)C[C@@]3(O)CNCc1ccc(F)cc1", "organism": "Streptococcus pneumoniae", "test system": "R6", "MIC": "1.6 to 3.1 µg/mL"}
{"SMILES": "C=C(NC(=O)C(=C)NC(=O)c1csc(C2=NC3c4csc(n4)C4NC(=O)c5csc(n5)C(C(C)(O)C(C)O)NC(=O)C5CSC(=N5)C(=CC)NC(=O)C(C(C)O)NC(=O)c5csc(n5)C3(CC2)NC(=O)C(C)NC(=O)C(=C)NC(=O)C(=C)NC(=O)C(C(C)CC)NC2C=Cc3c(C(C)O)cc(nc3C2O)C(=O)OC4C)n1)C(N)=O (stereo not drawn)", "organism": "Bacillus sp.", "test": "broth microdilution", "test system": "ATCC 27859", "setting": "18 h, 37 °C", "MIC": "0.042 µg/mL"}
{"SMILES": "CC1C(=NNC(=O)c2ccncc2)C(C)C(c2ccc(Br)cc2)OC1c1ccc(Br)cc1 (stereo not drawn)", "organism": "Rhizopus", "setting": "72 to 96 h", "MIC": "100 µg/mL"}
{"SMILES": "COc1ccc(C2=[N+]([O-])c3ccccc3N3CCCN=C23)cc1", "organism": "Clostridium sporogenes", "test": "microbial growth", "test system": "ATCC3584", "MIC": "1 µg/mL"}
{"SMILES": "CC[C@H](C)[C@H](NC(=O)[C@H](C)NC(=O)CNC(=O)[C@@H](N)CCSC)C(=O)N[C@@H](C)C(=O)N[C@@H](CCCCN)C(=O)N[C@@H](CC(C)C)C(=O)N[C@H](C(=O)N[C@@H](C)C(=O)N[C@@H](CCCCN)C(=O)N[C@@H](Cc1ccccc1)C(=O)NCC(=O)N[C@@H](Cc1c[nH]c2ccccc12)C(=O)N1CCC[C@H]1C(=O)N[C@@H](Cc1ccccc1)C(=O)N[C@H](C(=O)N[C@@H](CCCCN)C(=O)N[C@@H](CCCCN)C(=O)N[C@@H](Cc1ccccc1)C(=O)N[C@@H](Cc1ccc(O)cc1)C(=O)N[C@@H](CCCCN)C(=O)N[C@@H](CCC(N)=O)C(=O)N[C@H](C(=O)N[C@@H](CCSC)C(=O)N[C@@H](CCC(N)=O)C(=O)N[C@@H](Cc1ccccc1)C(=O)N[C@H](C(=O)NCC(=O)N[C@@H](CCC(N)=O)C(=O)NCC(=O)N[C@@H](Cc1c[nH]c2ccccc12)C(=O)N[C@H](C(=O)N[C@H](C(=O)N[C@@H](CC(=O)O)C(=O)N[C@@H](CCC(N)=O)C(=O)N[C@H](C(=O)N[C@@H](CCC(=O)O)C(=O)N[C@@H](CCCCN)C(=O)N[C@@H](Cc1c[nH]c2ccccc12)C(=O)N[C@@H](CCCNC(=N)N)C(=O)N[C@@H](CCCCN)C(=O)N[C@@H](CCCNC(=N)N)C(=O)N[C@@H](Cc1c[nH]cn1)C(=O)O)[C@@H](C)CC)[C@@H](C)CC)[C@@H](C)O)[C@@H](C)CC)[C@@H](C)CC)[C@@H](C)CC)C(C)C", "organism": "Bacillus subtilis subsp. subtilis", "test system": "ATCC 23857", "setting": "10 h", "MIC": "6.4 ± 0.2 µM"}
{"SMILES": "CC[C@H](C)[C@H](NC(=O)[C@H](CO)NC(=O)[C@H](CO)NC(=O)[C@H](Cc1ccccc1)NC(=O)CN)C(=O)N[C@@H](Cc1ccccc1)C(=O)N[C@@H](CCCNC(=N)N)C(=O)NCC(=O)N[C@H](C(=O)N[C@@H](C)C(=O)N[C@@H](CCCCN)C(N)=O)C(C)C", "organism": "Escherichia coli", "test system": "ATCC 8739", "setting": "added: 1 mM MgCl2", "MIC": "> 128 µM"}
{"SMILES": "C[C@@H](c1ccn(Cc2ccc(Cl)c(Cl)c2)n1)[C@](O)(Cn1cnnn1)c1ccc(F)cc1F", "organism": "Candidozyma auris", "test": "microbial growth", "test system": "887", "setting": "24 h, drug-resistant strain, clinical isolate", "MIC": "8 µg/mL"}
{"SMILES": "CC[C@H](C)[C@H](NC(=O)[C@H](CCCCN)NC(=O)[C@H](CCCCN)NC(=O)[C@H](Cc1ccccc1)NC(=O)[C@H](Cc1ccccc1)NC(=O)[C@H](CCCCN)NC(=O)[C@H](CCCCN)NC(=O)[C@H](Cc1ccccc1)NC(=O)[C@H](CCCNC(=N)N)NC(=O)[C@@H](N)CCCCN)C(=O)N[C@@H](CCCCN)C(=O)N[C@@H](CCCCN)C(=O)N[C@@H](CO)C(=O)N[C@H](C(=O)N[C@@H](CCCCN)C(=O)N[C@@H](CCCCN)C(=O)N[C@@H](CCCNC(=N)N)C(=O)N[C@H](C(=O)N[C@@H](CCCCN)C(=O)N[C@@H](CCCCN)C(=O)N[C@@H](CC(C)C)C(=O)N[C@@H](Cc1ccccc1)C(=O)N[C@@H](CCCCN)C(=O)N[C@@H](CCCCN)C(=O)N1CCC[C@H]1C(=O)N[C@@H](CCCNC(=N)N)C(=O)N[C@H](C(=O)N[C@H](C(=O)N1CCC[C@H]1C(=O)N[C@H](C(=O)N[C@@H](CO)C(=O)N[C@H](C(=O)N1CCC[C@H]1C(=O)N[C@@H](Cc1ccccc1)C(=O)O)[C@@H](C)CC)[C@@H](C)CC)[C@@H](C)CC)C(C)C)C(C)C)C(C)C", "organism": "Escherichia coli, Pseudomonas aeruginosa, Klebsiella pneumoniae, Acinetobacter baumannii", "test system": "clinical isolates", "setting": "upper value for all", "MIC": "4 µg/mL"}
{"SMILES": "CC(C)C[C@@H]1NC(=O)[C@H](C)NC(=O)[C@H](NC(=O)[C@H](CO)NC(=O)[C@@H](CCCCN)NC(=O)[C@@H](CC(C)C)NC(=O)[C@@H](N)Cc2ccccc2)[C@H](C)OC(=O)[C@H](CC(C)C)NC1=O", "organism": "Bacillus subtilis Staphylococcus epidermidis", "test system": "ATCC 14990", "setting": "tested as TFA salt", "MIC": "2 µg/mL"}
{"SMILES": "COc1ccc(C2=[N+]([O-])c3ccccc3N3CCN=C23)cc1", "organism": "Clostridium sporogenes", "test": "microbial growth", "test system": "ATCC3584", "MIC": "0.125 µg/mL"}
{"SMILES": "CC(C)C[C@H](NC(=O)CNC(=O)[C@H](C)NC(=O)[C@H](CCCNC(=N)N)NC(=O)[C@H](Cc1c[nH]cn1)NC(=O)[C@H](C)NC(=O)[C@@H](N)CC(=O)O)C(=O)N[C@@H](CCC(N)=O)C(=O)N[C@@H](Cc1ccccc1)C(=O)N1CCC[C@H]1C(=O)N[C@H](C(=O)NCC(=O)N[C@@H](CCCNC(=N)N)C(=O)N[C@H](C(=O)N[C@@H](Cc1c[nH]cn1)C(=O)N[C@@H](CCCNC(=N)N)C(=O)N[C@@H](CC(C)C)C(=O)N[C@@H](CC(C)C)C(=O)N[C@@H](CCCNC(=N)N)C(=O)N[C@@H](CCCCN)C(N)=O)C(C)C)C(C)C", "organism": "Enterobacter aerogenes", "test system": "ATCC 13048", "setting": "18 to 20 h", "MIC": "> 32 µM"}
{"SMILES": "C[C@@H](c1ccn(Cc2ccc(Cl)cc2Cl)n1)[C@](O)(Cn1cnnn1)c1ccc(F)cc1F", "organism": "Candidozyma auris", "test": "growth", "test system": "789 drug-resistant isolate", "setting": "24 h, 30 °C, ≥50% inhibition", "MIC": "16 µg/mL"}
{"SMILES": "[O-][N+]1=C(c2ccsc2)C2=NCCCN2c2ccccc21", "organism": "Prevotella intermedia/nigrescens", "test system": "ATCC 25611", "MIC": "0.25 µg/mL"}
{"note": "Repeated from above:"}
{"SMILES": "O=[N+]([O-])c1ccc(C2=[N+]([O-])c3ccccc3N3CCCN=C23)cc1", "organism": "Clostridioides difficile", "test": "microbial growth", "test system": "ATCC43255", "MIC": "≤ 0.06 µg/mL"}
{"SMILES": "CN[C@@H]1[C@H](O)[C@H](NC)[C@H]2O[C@]3(O)[C@H](O[C@@H]2[C@H]1O)O[C@H](C)C[C@@]3(O)CNCc1ccc(OC(F)(F)F)cc1", "organism": "Streptococcus pneumoniae", "test system": "BAA-1407 mefE ermB resistant", "MIC": "6 µg/mL"}
{"SMILES": "COc1ccc(C2=[N+]([O-])c3ccccc3N3CCCN=C23)cc1", "organism": "Clostridium sporogenes", "test": "microbial growth", "test system": "ATCC3584", "MIC": "1 µg/mL"}
